# Measurements pooled from the literature.
# A part holds a random share of what one study measured.

# Set 1 — method: protein binding microarray; form: double-stranded DNA, one strand shown; matrix: in vitro; concentration: not given; baseline: not given; reading: higher = stronger binding
# Target: Histone acetyltransferase KAT6A, winged helix 2, GST fusion (KAT6A, Homo sapiens, UniProt Q92794, residues 85-181)
# Setting: 8-mer, flanks averaged, mean of 2 arrays, mostly near background
# Residues (chain): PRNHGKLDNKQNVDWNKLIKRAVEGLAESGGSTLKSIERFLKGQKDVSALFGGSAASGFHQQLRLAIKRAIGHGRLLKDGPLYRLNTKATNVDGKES
Strand,E-score
AAATCTTG,-0.0308
AGTACGGA,-0.0706
ACAGCGCC,0.0483
AATCGGCG,0.0959
ACCAAAGG,-0.126

# Set 2 — method: EMSA with sequencing; form: double-stranded DNA, one strand shown; matrix: in vitro; concentration: 10 and 20 nM; baseline: negative control set to 0; reading: higher = stronger binding
# Target: Hepatocyte nuclear factor 3-alpha (Foxa1, Mus musculus, UniProt P35582, residues 1-468, full length assumed)
# UniProt P35582, sequence (whole entry, looked up): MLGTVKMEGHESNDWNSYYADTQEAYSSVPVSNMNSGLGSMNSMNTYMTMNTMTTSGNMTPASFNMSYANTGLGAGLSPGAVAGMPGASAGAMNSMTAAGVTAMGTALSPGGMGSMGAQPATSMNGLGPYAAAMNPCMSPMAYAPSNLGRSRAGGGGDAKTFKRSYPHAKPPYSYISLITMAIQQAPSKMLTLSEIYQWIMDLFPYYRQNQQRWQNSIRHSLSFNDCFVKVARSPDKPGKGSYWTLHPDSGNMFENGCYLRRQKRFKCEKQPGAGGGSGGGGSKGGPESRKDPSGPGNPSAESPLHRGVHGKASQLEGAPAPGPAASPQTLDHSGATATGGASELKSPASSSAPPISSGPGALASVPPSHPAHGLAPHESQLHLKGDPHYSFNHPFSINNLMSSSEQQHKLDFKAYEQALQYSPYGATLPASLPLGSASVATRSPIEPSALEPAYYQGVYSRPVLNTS
# Setting: whole designed probe, mean of two concentrations, ends assumed
Strand,normalised bound fraction
GTGAGCGGTGCCCATTGATGGGGAACTTTAAACTTTTGTAAAAATGTTCAAAGAGAATCTGTTGTTAGAAGTTTAACATTCTGATTTAACTGTTTTGAATACGAAAAATACAAACTCAAAGTAAACATCTAAAATATAAGGCAAATCTATCCATATAGAAAAGGAATAAGAAGGTACTGACCAATGAAGTTGAAACAACACTGTCATATTAATCTCAAATTTCACTGGGATCGTGGGGAC,0.347 ratio
GTGAGCGGTGCCCATTGATGGGGAACATCTTCCCCCTCTTCCTTGCCCCACCAGCTCACCTTCCCGGGTTATTTGCAGATAGGAAAATAAATAAAGCCGGCATTCGTTAACCCTCTTCTGGCGCAAACTGCACATTGGTCTGGATCTAACATGGTCCTTTGGCGACGCCAGGCTCCGGGAGAGCAAAGCACCGTGTCAGGGCCATGATCCGGGGTGGCCTTTCACTGGGATCGTGGGGAC,0.337 ratio
GTGAGCGGTGCCCATTGATGGGGAACCACCGCGCTCGCACGGCTTTGTCCGTGCTACAAAGCAGCCTGTTAAACTATTGGAACTAATGCGCCGCAGCTGCGCGAGTGACTTCTGCTGCTTATGTACATAAAAAGTCCTGGGGGAGGGCTGTAACCATCAGATGCCTGCTGCTGGGTTGTTTGGCTAGTCTTTCCATTTGCTTATTCCTGAATCCAAAGGTTTCACTGGGATCGTGGGGAC,0.343 ratio
GTGAGCGGTGCCCATTGATGGGGAACCTGAAAGACTGGCGTAACATGATGAAGAAGGAGGTATTCTGGACCATGTAAAGGACAGCGGATTGCTAAGGTCAACATTTAATGAGTCAGAAAGTCATTTAGAGATGAGTTTGGAATAGTAGGGTCTGGAGATGACGGAAGAGCTGGAATGAATGTTAAACTCAAAAGTGTCAACTCCCATAGGCAGTGGGCATTTCACTGGGATCGTGGGGAC,0.00882 ratio

# Set 3 — method: protein-binding microarray; form: double-stranded DNA, one strand shown; matrix: in vitro; concentration: 0.8 µM; setting: whole 60-bp probe, no competitor; reading: higher = stronger binding; shared flanks, not repeated: … GTCTTGATTCGCTTGACGCTGCTG
# Target: Centromere-binding protein 1, full length, N-terminal tag (CBF1, Saccharomyces cerevisiae, UniProt P17106, residues 1-351)
# UniProt P17106, sequence (whole entry, looked up): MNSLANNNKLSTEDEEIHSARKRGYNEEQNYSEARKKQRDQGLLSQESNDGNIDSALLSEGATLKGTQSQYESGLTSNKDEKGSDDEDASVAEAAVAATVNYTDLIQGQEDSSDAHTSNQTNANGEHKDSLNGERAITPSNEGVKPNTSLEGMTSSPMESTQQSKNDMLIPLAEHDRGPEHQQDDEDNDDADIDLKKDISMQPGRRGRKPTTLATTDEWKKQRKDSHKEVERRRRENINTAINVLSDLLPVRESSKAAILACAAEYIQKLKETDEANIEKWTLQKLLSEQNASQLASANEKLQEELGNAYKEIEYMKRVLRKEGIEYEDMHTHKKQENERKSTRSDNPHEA
Strand,fluorescence intensity [a.u.]
CTAGGATTACGCAAACACACGCACAGATACAATTTC,555
GAAGCATATTAATATCACCATCATTTCTCCTCCTAG,504
GAACTGACAGCCAACAACGTGCCACTAGCAGGATAG,654
GAATTATCTGTTCATCAGATGGTCAAGCAAGGGTAG,577
GAATTATTGCTCACACAACTGATGTTGCTGACATAG,577
CTAATATATCGCTAGCATGCGTGAGTTATGGATTTC,531
CTATTATCCATTTTTAACGTGGTGAGAAAACCCTTC,718

# Mixed results
Molecule,target,test,system,setting,how to read,quantity,result
"PhoQ, residues 284 288 289 292 302 303 GNNTDL","PhoP, residues 12 14 15 18 19 NQGLL (Escherichia coli, UniProt P23836)","Sort-seq, measured: YFP reporter",E. coli,"PhoQ-PhoP variant library, added: 10 µM Mg2+","baseline: high Mg2+ state, higher = stronger signaling",fold induction,1.21

# Repeated from above (set 1):
Strand,E-score
AGTACGGA,-0.0706
ACAGCGCC,0.0483
